Assay results from different studies.
Every numbered part comes from another study and shows a few of its results, in no order.

Set 1
Target: Transcription factor SOX-2, HMG box (Sox2, Mus musculus, UniProt P48432, residues 41-119)
Chain of UniProt P48432 (41-119, looked up): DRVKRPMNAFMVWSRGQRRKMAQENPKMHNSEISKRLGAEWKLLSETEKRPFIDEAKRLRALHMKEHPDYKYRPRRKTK
Method: Spec-seq
Molecule type: double-stranded DNA, one strand shown
Matrix: in vitro
Concentration: not given
Notes: whole probe, mean of replicates
Baseline: not given
Direction: lower = stronger binding
All sequences stand within: GAGTCGTCTCGTCAGCAC … CCGTAGAGCACTCAGGTC
Under “relative binding energy”, `CATAAGA` is recorded as -0.204 ln ratio.
For `CATGTTT`, “relative binding energy” read 0.54 ln ratio.
For `CATGTAT`, “relative binding energy” read 0.0398 ln ratio.
Under “relative binding energy”, `TCGCGTT` is recorded as 1.37 ln ratio.
`CATTAAT`: “relative binding energy” -0.721 ln ratio.
`TTCAGTT`: “relative binding energy” 0.108 ln ratio.
Under “relative binding energy”, `ACTCGTT` is recorded as 0.446 ln ratio.
`CATTGGT`: “relative binding energy” -0.326 ln ratio.
`GCGCGTT` — result for “relative binding energy”: 1.34 ln ratio.
`CATTTCA`: “relative binding energy” -0.13 ln ratio.
Under “relative binding energy”, `CATTATG` is recorded as -1.64 ln ratio.
For `ATATGTT`, “relative binding energy” read -0.0139 ln ratio.
For `CGTGGTT`, “relative binding energy” read 1.08 ln ratio.
Under “relative binding energy”, `CATAACT` is recorded as 0.0719 ln ratio.
`CATAGCT` — result for “relative binding energy”: -0.289 ln ratio.
Under “relative binding energy”, `ACCTGTT` is recorded as 0.158 ln ratio.

Set 2
Target: RNA binding protein fox-1 homolog 2, RRM domain, GST-SBP tag (RBFOX2, Homo sapiens, UniProt O43251-10, residues 100-194)
Method: RNA Bind-n-Seq
Molecule type: RNA
Matrix: in vitro
Concentration: 365 nM
Notes: natural RNA segment, single round, ends assumed
Baseline: no-protein control
Direction: higher = stronger binding
Target sequence (chain): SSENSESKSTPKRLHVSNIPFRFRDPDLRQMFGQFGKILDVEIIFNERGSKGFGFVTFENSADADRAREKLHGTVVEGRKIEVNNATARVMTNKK
For `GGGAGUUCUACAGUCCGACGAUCGUUAGCCUCCACCACCCUUUCCCCCUUCUCUUAGUUAUUGCUGAAGAGGGUUGGUAUAAAAAUAAUUUUAAAAAAGCCUUCCUACACGUUAGAUUUGCCGUACCAAUCUCUGGAAUUCUCGGGUGCCAA`, “RBNS enrichment (R)” read 0.538.
`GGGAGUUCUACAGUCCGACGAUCGAGGAGGAAGGGAAAGAGAUGUGAGGGAAGCAUUUCAUCAACCAGCUACGUCCCCCUUAGAAGGAUCACUGCAGCAGGUCACCGAGCAGGAGUCCCUCUGAGCGUCCCUUUGGAAUUCUCGGGUGCCAA`: “RBNS enrichment (R)” 0.494.
For `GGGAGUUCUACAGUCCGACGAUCGCUGCCCUCUGCCACCCUGUGGCUGCCCUGGCUCUCUGGUCUCUAUCACCCACACAGCACCAUCUCCCCGGCUUGGCUUGGUUAGAAUGGUGAGGGGUUUACAGGGUAAGUGGAAUUCUCGGGUGCCAA`, “RBNS enrichment (R)” read 0.284.
`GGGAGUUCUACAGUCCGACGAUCAGCAUAUUAGAAGAAAGCAAACUGCCAUACAAUAAUUUUCAGUUUCCAAGGCAACCAAGUGGAGAACACAUCACAGGAGACAGGAAAUAUGGCUUGUUCAUAGAAUGAUGUGGAAUUCUCGGGUGCCAA` — result for “RBNS enrichment (R)”: 0.693.
`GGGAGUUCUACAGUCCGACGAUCCCUCCCAGAAGUCAGUCAUCCCCAGGCCGUGCACCCUUUUCAGCUGGAUGAGAGCCAGGGAUGCAUUCUCUCCAAACAGCUACCCUGGCCCAUUUUAAGGUAAUCUCAUUUGGAAUUCUCGGGUGCCAA`: “RBNS enrichment (R)” 0.632.
For `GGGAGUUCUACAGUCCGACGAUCCAGUGAUCUGUAUUCUUAGUUUCAUUAUUUUCUUUUGAUUGAUAUGACACUAUAUAAAAUUUUCAUUUGAGAAUUUCUCAAUUGUAUCUAGUUAAAUAGCACAGUUUGGAUGGAAUUCUCGGGUGCCAA`, “RBNS enrichment (R)” read 0.705.
`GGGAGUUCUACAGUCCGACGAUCAGGUACUGCCCAUUGGGAGAUGGGGACAUUGGGACCUCAGCAAUGAAGAACCCUUGUGAAGUAACCAGGAGGAAUGGGGAAAGAAGCAAGUUGGGCAGGAUAUGGCCUACUGGAAUUCUCGGGUGCCAA`: “RBNS enrichment (R)” 0.818.
`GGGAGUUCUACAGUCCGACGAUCCAAGAAAAGUGCCAGUUUUACCCAUGCCAUAUAAUUCAGCUCUUUUGAGUUAUGUGGGGCCAGCAGAAGUCUCAAUCCUUAUAGGCUUGAUGGUGAGAGCAGCGGGAGGUUGGAAUUCUCGGGUGCCAA`: “RBNS enrichment (R)” 0.552.

Set 3
Target: Ras GTPase-activating protein-binding protein 1, RRM domain (G3BP1, Homo sapiens, UniProt Q13283)
Chain of UniProt Q13283 (whole entry, looked up): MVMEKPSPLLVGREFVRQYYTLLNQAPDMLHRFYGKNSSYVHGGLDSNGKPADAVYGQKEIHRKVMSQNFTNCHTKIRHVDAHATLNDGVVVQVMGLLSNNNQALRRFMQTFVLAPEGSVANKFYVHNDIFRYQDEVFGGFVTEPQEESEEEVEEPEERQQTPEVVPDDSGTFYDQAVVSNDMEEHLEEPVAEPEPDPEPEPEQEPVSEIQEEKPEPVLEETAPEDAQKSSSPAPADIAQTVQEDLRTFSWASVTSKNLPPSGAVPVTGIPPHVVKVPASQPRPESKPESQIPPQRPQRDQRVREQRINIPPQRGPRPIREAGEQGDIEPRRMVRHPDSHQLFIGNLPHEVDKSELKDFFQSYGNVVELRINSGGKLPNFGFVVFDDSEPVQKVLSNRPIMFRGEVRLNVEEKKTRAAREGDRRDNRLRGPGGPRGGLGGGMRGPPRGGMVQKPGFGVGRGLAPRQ
Method: RNA Bind-n-Seq
Molecule type: RNA
Matrix: in vitro
Concentration: 1 µM
Notes: whole 134-nt RNA, ends assumed
With: 150 mM KCl
Baseline: input library
Direction: higher = stronger binding
With `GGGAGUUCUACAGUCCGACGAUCUCCUGUGCUACACAUCGUAUGUACCGAAUCAAAUUUUUUUAAACCCAAAUUUUUUUAAAAAAGUAUUAUGUUACGCCGUUCGGAUCUGCAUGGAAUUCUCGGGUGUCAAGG` the log2 enrichment was -0.595.
`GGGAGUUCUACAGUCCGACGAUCCAAGUCCUGUGCUACACAUCGUAUGUACCGAAUCGGGGUUUGGUUUGGGGUUUGGAAAGUAUUAUGUUACGCCGUUCGGAUCUGCACUUCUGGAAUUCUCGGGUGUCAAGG` gave a log2 enrichment of -0.417.
`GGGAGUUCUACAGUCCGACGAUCUAACUUUAGAGGAGGAUCUGAUGGAUCUGGCAGUGGACGUGGAUUUGGGGAUGGCUAUAAUGGGUAUGGAGGAGGACCUGGAGGUGGCAAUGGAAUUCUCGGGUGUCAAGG` has a log2 enrichment of -0.8.
The log2 enrichment of `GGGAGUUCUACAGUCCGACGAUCUAACUUUAGAGGAGGAUCUGAUGGAUAUGGCAGUGGACGUGGAUUUGGGGAUGGCUAUAAUGUGUAUGGAGGAGGACCUGGAGGUGGCAAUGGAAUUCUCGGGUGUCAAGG` is reported as -0.395.
`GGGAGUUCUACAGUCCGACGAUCAGGACGUGCAGAACUUCCUCUCUGACUGCACGAUUCAUGAUGGGGCCGCAGGUGUCCAUUUCAUCUACACUAGAGAGGGCAGGCAGAGUGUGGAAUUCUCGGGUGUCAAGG` has a log2 enrichment of -0.115.
The log2 enrichment of `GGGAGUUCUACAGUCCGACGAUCCCUGUGCUACACAUCGUAUGUACCGAAUCGGGGUUUUUUUGGGGUUUGGGGAAAAAGGGGAAAGUAUUAUGUUACGCCGUUCGGAUCUGCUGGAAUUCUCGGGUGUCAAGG` is reported as 0.317.
For `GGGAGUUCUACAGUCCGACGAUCUCAAGUCCUGUGCUACACAUCGUAUGUACCGAAUCGGGAAAGGGAAAGGAAAGGGAAAGUAUUAUGUUACGCCGUUCGGAUCUGCACUUCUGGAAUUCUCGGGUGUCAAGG`, the log2 enrichment was -0.188.
`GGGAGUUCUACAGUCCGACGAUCAGUCCUGUGCUACACAUCGUAUGUACCGAAUCGGGGAAAGGGGUGGGGAAAAAGGGGAAAGUAUUAUGUUACGCCGUUCGGAUCUGCACUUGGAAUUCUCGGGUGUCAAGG` gave a log2 enrichment of 0.914.
For `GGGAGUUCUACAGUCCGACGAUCCUCAAGUCCUGUGCUACACAUCGUAUGUACCGAAUCGGAGGAGGUUUUUUUGGAAAGUAUUAUGUUACGCCGUUCGGAUCUGCACUUCCAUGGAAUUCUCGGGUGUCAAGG`, the log2 enrichment was -0.195.

Set 4
Target: Max-binding protein MNT, bHLH-zipper, MAX partner unstated (MNT, Homo sapiens, UniProt Q99583, residues 220-300)
Method: protein-binding microarray
Molecule type: double-stranded DNA, one strand shown
Matrix: in vitro
Concentration: not given
Notes: k-mer, scored over probes, only values ≥0.25
Direction: higher = stronger binding
Construct (chain): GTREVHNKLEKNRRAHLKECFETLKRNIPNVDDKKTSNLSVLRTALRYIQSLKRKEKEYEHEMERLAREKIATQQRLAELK
With `CACATGGG` the E-score was 0.468.
For `ACGAGCGG`, the E-score was 0.274.
With `ATGCCCCA` the E-score was 0.277.
For `CGCCGCAC`, the E-score was 0.343.
`CACCGTGC` has an E-score of 0.27.
With `CGTACCAC` the E-score was 0.285.
For `CCCCAAGA`, the E-score was 0.259.
For `ATCCGCAC`, the E-score was 0.254.
`ACGCCTAT` has an E-score of 0.25.
`CCTCCCCA` has an E-score of 0.391.
`CGTGGTAG` has an E-score of 0.386.
The E-score of `ACACGCAG` is reported as 0.276.
`CACGAGCC` gave an E-score of 0.266.
The E-score of `GCGTGGAC` is reported as 0.378.

Excerpt of the above (set 3):
`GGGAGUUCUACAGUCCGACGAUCAGUCCUGUGCUACACAUCGUAUGUACCGAAUCGGGGAAAGGGGUGGGGAAAAAGGGGAAAGUAUUAUGUUACGCCGUUCGGAUCUGCACUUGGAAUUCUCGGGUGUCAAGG` gave a log2 enrichment of 0.914.
For `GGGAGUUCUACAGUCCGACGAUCUCAAGUCCUGUGCUACACAUCGUAUGUACCGAAUCGGGAAAGGGAAAGGAAAGGGAAAGUAUUAUGUUACGCCGUUCGGAUCUGCACUUCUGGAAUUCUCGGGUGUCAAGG`, the log2 enrichment was -0.188.
`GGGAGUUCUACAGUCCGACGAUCAGGACGUGCAGAACUUCCUCUCUGACUGCACGAUUCAUGAUGGGGCCGCAGGUGUCCAUUUCAUCUACACUAGAGAGGGCAGGCAGAGUGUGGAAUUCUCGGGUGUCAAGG` has a log2 enrichment of -0.115.
The log2 enrichment of `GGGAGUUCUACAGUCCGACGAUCCCUGUGCUACACAUCGUAUGUACCGAAUCGGGGUUUUUUUGGGGUUUGGGGAAAAAGGGGAAAGUAUUAUGUUACGCCGUUCGGAUCUGCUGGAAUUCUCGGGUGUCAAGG` is reported as 0.317.
With `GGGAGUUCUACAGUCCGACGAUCUCCUGUGCUACACAUCGUAUGUACCGAAUCAAAUUUUUUUAAACCCAAAUUUUUUUAAAAAAGUAUUAUGUUACGCCGUUCGGAUCUGCAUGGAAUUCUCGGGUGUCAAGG` the log2 enrichment was -0.595.
`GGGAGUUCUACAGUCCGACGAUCCAAGUCCUGUGCUACACAUCGUAUGUACCGAAUCGGGGUUUGGUUUGGGGUUUGGAAAGUAUUAUGUUACGCCGUUCGGAUCUGCACUUCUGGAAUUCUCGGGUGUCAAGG` gave a log2 enrichment of -0.417.
